Published values of several laboratories.
A part holds a random share of what one study measured.
UniProt Q9H422, sequence (whole entry, looked up): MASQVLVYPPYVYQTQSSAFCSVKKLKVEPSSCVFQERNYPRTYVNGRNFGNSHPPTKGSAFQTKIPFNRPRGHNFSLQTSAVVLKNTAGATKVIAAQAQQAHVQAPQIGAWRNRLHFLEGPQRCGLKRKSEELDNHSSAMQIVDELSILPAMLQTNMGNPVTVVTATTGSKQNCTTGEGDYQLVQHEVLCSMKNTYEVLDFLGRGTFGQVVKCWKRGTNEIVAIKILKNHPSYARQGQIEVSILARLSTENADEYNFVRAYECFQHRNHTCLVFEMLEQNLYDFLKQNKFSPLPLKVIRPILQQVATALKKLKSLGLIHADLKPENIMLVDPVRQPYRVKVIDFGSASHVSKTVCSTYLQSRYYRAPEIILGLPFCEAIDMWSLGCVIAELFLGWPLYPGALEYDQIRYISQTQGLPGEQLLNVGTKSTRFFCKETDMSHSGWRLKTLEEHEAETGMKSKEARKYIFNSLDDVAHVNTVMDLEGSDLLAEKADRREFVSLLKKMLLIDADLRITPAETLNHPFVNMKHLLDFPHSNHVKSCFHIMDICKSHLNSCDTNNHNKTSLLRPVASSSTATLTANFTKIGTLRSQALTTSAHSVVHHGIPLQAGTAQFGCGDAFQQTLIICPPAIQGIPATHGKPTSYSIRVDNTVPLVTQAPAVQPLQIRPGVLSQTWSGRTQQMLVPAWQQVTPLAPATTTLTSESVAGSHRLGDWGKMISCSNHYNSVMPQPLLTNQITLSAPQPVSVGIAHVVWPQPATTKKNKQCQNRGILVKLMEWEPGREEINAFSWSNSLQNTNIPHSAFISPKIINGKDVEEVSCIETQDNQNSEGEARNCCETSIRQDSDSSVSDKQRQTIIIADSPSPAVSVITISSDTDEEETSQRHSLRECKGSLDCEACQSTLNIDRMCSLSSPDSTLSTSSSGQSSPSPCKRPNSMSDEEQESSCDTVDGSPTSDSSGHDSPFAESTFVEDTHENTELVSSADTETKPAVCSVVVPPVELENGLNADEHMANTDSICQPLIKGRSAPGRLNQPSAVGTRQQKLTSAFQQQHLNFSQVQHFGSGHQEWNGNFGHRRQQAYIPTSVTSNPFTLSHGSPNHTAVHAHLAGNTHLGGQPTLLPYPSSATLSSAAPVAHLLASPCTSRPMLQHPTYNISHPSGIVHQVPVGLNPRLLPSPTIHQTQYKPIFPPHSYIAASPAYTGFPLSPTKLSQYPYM
UniProt P49137, sequence (whole entry, looked up): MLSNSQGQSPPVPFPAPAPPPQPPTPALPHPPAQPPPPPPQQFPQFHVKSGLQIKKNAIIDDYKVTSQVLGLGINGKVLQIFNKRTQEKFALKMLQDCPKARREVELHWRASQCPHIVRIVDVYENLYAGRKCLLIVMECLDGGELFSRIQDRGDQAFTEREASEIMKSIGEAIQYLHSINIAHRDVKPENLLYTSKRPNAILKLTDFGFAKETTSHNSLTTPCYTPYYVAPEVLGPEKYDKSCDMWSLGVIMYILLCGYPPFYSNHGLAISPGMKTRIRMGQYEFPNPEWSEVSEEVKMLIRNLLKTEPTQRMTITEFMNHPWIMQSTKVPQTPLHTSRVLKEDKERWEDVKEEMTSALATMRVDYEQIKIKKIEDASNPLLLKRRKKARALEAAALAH
UniProt Q13153, sequence (whole entry, looked up): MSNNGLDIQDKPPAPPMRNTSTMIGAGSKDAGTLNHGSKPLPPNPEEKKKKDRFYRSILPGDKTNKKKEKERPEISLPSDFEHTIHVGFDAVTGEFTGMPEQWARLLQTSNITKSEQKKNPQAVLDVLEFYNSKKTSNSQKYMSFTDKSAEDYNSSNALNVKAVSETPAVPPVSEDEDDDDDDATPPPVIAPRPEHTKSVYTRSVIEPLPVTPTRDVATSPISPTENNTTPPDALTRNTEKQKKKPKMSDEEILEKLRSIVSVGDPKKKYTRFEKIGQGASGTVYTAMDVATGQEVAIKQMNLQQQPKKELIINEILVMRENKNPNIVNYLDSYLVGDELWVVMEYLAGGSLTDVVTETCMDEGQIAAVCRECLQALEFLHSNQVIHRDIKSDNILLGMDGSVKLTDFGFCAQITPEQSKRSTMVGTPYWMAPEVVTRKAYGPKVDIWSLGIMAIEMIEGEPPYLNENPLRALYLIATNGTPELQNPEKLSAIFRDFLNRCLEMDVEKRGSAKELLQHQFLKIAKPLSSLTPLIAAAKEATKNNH

Block 1
Target: Interferon regulatory factor 3, full length, phosphomimetic (IRF3, Homo sapiens, UniProt Q14653, residues 1-427, S386D/S396D/S398D/S402D/T404D/S405D)
Technique: protein-binding microarray
Form: double-stranded DNA, one strand shown
Medium: in vitro
Concentration: 2540 nM top
Notes: 60-bp whole probe
With: salmon DNA 0.4 mg/ml
Reference: random background probes
Direction: higher = stronger binding
Measurement: fitted relative affinity
Shared flanks, not repeated: GCCTAGCAC … GTCTTGATTCGCTTGACGCTGCTG
Construct (chain): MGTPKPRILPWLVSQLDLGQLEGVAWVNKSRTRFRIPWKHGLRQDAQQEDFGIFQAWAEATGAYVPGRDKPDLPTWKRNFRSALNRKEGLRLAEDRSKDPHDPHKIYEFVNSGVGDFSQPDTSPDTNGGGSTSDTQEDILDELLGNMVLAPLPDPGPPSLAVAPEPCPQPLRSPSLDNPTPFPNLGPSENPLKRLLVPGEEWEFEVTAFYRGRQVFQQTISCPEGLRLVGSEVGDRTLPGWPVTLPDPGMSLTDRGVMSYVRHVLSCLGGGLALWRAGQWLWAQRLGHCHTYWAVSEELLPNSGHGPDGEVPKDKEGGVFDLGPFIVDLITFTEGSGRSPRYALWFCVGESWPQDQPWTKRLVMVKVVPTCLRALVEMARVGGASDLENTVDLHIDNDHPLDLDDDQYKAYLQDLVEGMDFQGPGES
Strand = GGCGGTCTCGGACTGGGGACGTGCTAG; result = -0.242 z-score
Strand = TTAGGACTGGGGACTGGTTTAGTGCTA; result = -0.905 z-score
Strand = TTAGATATCAGTCTCGATTCGTGCTAG; result = 1.51 z-score
Strand = GACTGTCTCCTTTTCCTGACGTGCTAG; result = 4.41 z-score
Strand = TCATTTTCCTACATCAGACTGTGCTAG; result = 3.11 z-score
Strand = TCAGAACTGGGGACTGGATTAGTGCTA; result = -0.436 z-score
Strand = GAAGGACTGGGGTTTCGGGACGTGCTA; result = 0.531 z-score
Strand = GACAGTCTCCTTCTCCTGACGTGCTAG; result = 4.97 z-score

Block 2
Target: Ephrin type-A receptor 2 (EPHA2, Homo sapiens, UniProt P29317)
UniProt P29317, sequence (whole entry, looked up): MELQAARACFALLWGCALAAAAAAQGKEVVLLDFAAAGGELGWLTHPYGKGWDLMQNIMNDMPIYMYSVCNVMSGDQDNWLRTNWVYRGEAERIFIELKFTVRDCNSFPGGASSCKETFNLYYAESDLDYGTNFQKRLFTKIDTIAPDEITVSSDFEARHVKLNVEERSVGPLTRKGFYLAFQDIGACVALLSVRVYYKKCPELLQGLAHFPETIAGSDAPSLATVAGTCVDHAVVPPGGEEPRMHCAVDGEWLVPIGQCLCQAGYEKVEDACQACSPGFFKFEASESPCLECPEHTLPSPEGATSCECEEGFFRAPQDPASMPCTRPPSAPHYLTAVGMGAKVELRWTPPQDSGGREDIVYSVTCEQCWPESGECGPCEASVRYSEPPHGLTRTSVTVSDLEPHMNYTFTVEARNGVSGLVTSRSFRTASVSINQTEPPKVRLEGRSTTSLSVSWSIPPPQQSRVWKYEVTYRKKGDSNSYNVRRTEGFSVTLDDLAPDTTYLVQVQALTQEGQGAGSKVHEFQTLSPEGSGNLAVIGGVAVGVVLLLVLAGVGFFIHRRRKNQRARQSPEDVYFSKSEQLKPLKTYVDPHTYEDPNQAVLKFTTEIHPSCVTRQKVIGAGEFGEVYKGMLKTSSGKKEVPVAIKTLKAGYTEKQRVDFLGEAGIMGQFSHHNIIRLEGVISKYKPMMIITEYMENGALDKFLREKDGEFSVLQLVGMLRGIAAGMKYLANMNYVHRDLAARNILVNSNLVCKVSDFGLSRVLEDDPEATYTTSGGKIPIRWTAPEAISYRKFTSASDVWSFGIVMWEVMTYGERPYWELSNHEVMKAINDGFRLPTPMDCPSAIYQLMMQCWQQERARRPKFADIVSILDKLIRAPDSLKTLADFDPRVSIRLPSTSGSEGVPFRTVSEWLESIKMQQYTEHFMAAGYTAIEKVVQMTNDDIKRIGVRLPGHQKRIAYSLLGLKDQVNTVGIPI
Read-out: enzyme activity
Mode: inhibitor
Concentration: 0.5 µM
Reference: control
Measurement: remaining activity
Structure (SMILES) = CC(C)[C@H](CO)Nc1nc(Nc2cc(N)cc(Cl)c2)c2ncn(C(C)C)c2n1; result = 67.5%
Structure (SMILES) = NCCNc1ncc(C(N)=O)c(Nc2cccc(C(F)(F)F)c2)n1; result = 99.5%
Structure (SMILES) = COc1cc2ncnc(Nc3ccc(Oc4ccccc4)cc3)c2cc1OC; result = 106%

Block 3
Target: RING finger protein unkempt homolog, zinc fingers 1-6, GST-SBP tag (UNK, Homo sapiens, UniProt Q9C0B0, residues 30-357)
UniProt Q9C0B0, sequence (30-357, looked up): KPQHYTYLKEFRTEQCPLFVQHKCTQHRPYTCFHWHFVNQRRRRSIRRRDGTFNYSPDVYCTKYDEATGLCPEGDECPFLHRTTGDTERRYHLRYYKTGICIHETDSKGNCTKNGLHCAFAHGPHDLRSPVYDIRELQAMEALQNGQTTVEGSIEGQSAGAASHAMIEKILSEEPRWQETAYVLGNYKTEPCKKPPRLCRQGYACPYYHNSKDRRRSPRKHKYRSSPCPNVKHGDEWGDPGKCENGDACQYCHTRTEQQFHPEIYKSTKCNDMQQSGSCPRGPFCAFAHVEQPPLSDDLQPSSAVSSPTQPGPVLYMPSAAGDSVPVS
Technique: RNA Bind-n-Seq
Form: RNA
Medium: in vitro
Concentration: not given
Notes: RNA with constant flanks, human-mouse chimeric sites, ends assumed
Reference: input RNA pool
Direction: higher = stronger binding
Measurement: bound/input enrichment
Shared flanks, not repeated: GGGAGUUCUACAGUCCGACGAUC … CAACAGAGGAUUGAGCAUCA
Strand = ACCUCCCCCUCCCGCCUCACCCCACCCAAGAAAGAAAGAAAGUUUUUGGCGUUUCUUUUCCUUCCCCAUACAAAGUGAUUACAGUUUCCCCCGCAAGGGUCUAUCGAUUCACCCUUCGGA; result = 0.862 ratio
Strand = UCUGGUCACACUCGUGUGUAUGGUGUUUGCUUUGUUGACACUUCACUGGGCAAGUUUUUCAUCGGCCAGUUUUCGGAUGACCGCCACUGUUCCAGAUUUAGGACGCUAGUGGCACACUAU; result = 0.199 ratio
Strand = CACGUGUCUGCAGUACUUGAUGUGGAUUACUCUCCCACUGGGAAGGAAUUUGUGUCUGCCAGCUUUGAUAAGUCUAUUCGAAUCUUUCCUGUGGACAAGAGCCGAAGCAGGGAAGUGUAU; result = 0.143 ratio
Strand = GCACUUGGCAAUGUAAUCAGCGCCUUGGGGGACAAGAGCAAGAGAGCCACCCAUGUCCCUUACAGAGACUCUAAGCUGACAAGACUCUUGCAGGAUUCCCUUGGGGGUAACAGCCAAACC; result = 0.119 ratio
Strand = ACACAAUAUGAGACCAACAGCUUGGACUUCAAAGUUGGGGCAGAUGGGACAGUCUUCGCCACCCGGGAGCUGCAGGUCCCCUCCGAGCAGGUGGCCUUCACGGUGACUGCAUGGGACAGC; result = 0.193 ratio
Strand = CACAGAGCAGCACCUACCCCCUCCUCCUUUCCACACCUGCAAACUCUUUUGCCUGGGCUGAAUAUUUAGUGUAAUUACAUCUCAGCUUUGAGGGCUCCUGUGGCAAAUUCCCGGAUUAAA; result = 0.621 ratio
Strand = UUCAAAGGCUGUGUUAUCUGUGUCAUUUCAUAAGUAACUCUGGGGGAGGGAAAUUCUGUUCUUUUGUUUAAUUUUCCCCCAAAUGAAACCAACAUGCGUGUUGAAGAACUGAGAAAAAAU; result = 0.165 ratio
Strand = CUGUGUGUGCUGAAUAAAUGGCUUGUAAGAACUGUCCUCCAAGCUGUAACCCAUGCUGUUAUUAUAGUUGCUGCAAAAUGUUCUUCCUGAUAUUGAUUUUAUUUGUUCUGACUCUCCCUC; result = 1.27 ratio

Block 4
SMILES: O=C(Nc1cnc(Oc2ccc(F)cc2)nc1)N1CCc2ncccc2[C@@H]1c1ccc(F)cc1
Read-out: cell-free assay
Technique: competition with immobilised ligand
Concentration: 1 µM
Measurement: remaining binding
target = HIPK3 (Homo sapiens, UniProt Q9H422); result = 90%
target = FLT3 (Homo sapiens, UniProt P36888, ITD); result = 92%
target = PAK1 (Homo sapiens, UniProt Q13153); result = 71%
target = FLT3 (Homo sapiens, UniProt P36888); result = 84%
target = MAPKAPK2 (Homo sapiens, UniProt P49137); result = 80%
target = CDK2 (Homo sapiens, UniProt P24941); result = 100%
target = FLT3 (Homo sapiens, UniProt P36888, K663Q); result = 100%

Excerpt of the above (block 2):
Structure (SMILES) = COc1cc2ncnc(Nc3ccc(Oc4ccccc4)cc3)c2cc1OC; result = 106%
Structure (SMILES) = CC(C)[C@H](CO)Nc1nc(Nc2cc(N)cc(Cl)c2)c2ncn(C(C)C)c2n1; result = 67.5%
Structure (SMILES) = NCCNc1ncc(C(N)=O)c(Nc2cccc(C(F)(F)F)c2)n1; result = 99.5%
